Experimental data gathered from unrelated publications.
Protocols differ between the studies behind these lines. Values joined by “and” are separate records of one study, mostly repeats; a detail may differ. ± marks the error that the study gave.

Structure (SMILES) | test | test system | setting | how to read | endpoint | value
CCn1ccc(-c2cc(-c3cnn(C)c3)cc([C@@H](C)NC(=O)c3cc(OCCN(C)C)ccc3C)c2)n1 |  | C57BL/6J mice, male, plasma | iv, 10 mg/kg |  | AUC(0-inf) | 6250 ng·h/mL
COc1ccc(CNc2ccc3c(c2)S(=O)(=O)C=C3)cc1 | flow cytometry | male C57BL/6 mice, spleen | i.p., 10 mg/kg, 8 days | baseline: CD45+ cells | CD4+ cells | 14.7%
CN1Cc2cc(Cl)ccc2-n2c(nnc2C2CCN(c3cccc([18F])n3)CC2)C1 | PET two-tissue compartment model | rhesus monkey, hippocampus | intravenous, dose not given, 60 min scan, baseline scan |  | total volume of distribution | 0.98 ± 0.29 mL/cm3
C[C@H](O)[C@@H](NC(=O)[C@H]1CCCN1C(=O)[C@@H](CCCCN)NC(=O)[C@@H](CO)NC(=O)[C@@H](Cc1ccc(O)cc1)NC(=O)[C@@H](CC(N)=O)NC(=O)CCOCCOCCOCCNC(=O)CN1CCN(CC(=O)O)CCN(CC(=O)O)CCN(CC(=O)O)CC1)C(=O)N[C@H](CC(=O)O)C(=O)N[C@H](CCCNC(=N)N)C(=O)N[C@H](CCC(N)=O)C(=O)N[C@H](Cc1ccc(O)cc1)C(=O)N[C@H](Cc1c[nH]cn1)C(=O)N[C@H](Cc1ccccc1)C(N)=O [copper-64 labelled] |  | C57BL/6J mice, spleen | intravenous, 1.85 MBq, 1.333 h, radiolabelled |  | tissue uptake | 0.17 ± 0.03 %ID/g
CC1(C)C(=O)N(c2ccc(C#N)c(C(F)(F)F)c2)C(=S)N1c1ccc(C(N)=O)c(F)c1 |  | male human, plasma | oral, 40 mg, single dose, fasted |  | AUC | 71300 ng·h/mL
CCCC[C@@H]1NC(=O)[C@H](Cc2ccc(O)cc2)NC(=O)[C@@H]2CCCN2C(=O)[C@H](CC(=O)O)NC(=O)[C@H](C)NC(=O)[C@H](Cc2ccccc2)NC(=O)[C@@H]2CSCCC(=O)N3CN(CN(C3)C(=O)CCSC[C@@H](C(=O)N[C@@H](C)C(N)=O)NC1=O)C(=O)CCSC[C@H](NC(C)=O)C(=O)N[C@@H](CC(C)(C)C)C(=O)N1CCC[C@H]1C(=O)N[C@@H](CCC(=O)O)C(=O)N[C@H](CCCCNC(=O)CCc1cn(CCOCCOCCOCCN(CCOCCOCCOCCC(=O)N[C@H]3CSCCC(=O)N4CN5CN(C4)C(=O)CCSC[C@H](NC(=O)[C@@H](CC(=O)O)NC(=O)[C@H](Cc4cccc6ccccc46)NC(=O)[C@@H]4CCCN4C3=O)C(=O)N[C@@H](CCSC)C(=O)N[C@@H](CCCCNC(=N)N)C(=O)N[C@@H](CC(=O)O)C(=O)N[C@@H](Cc3c[nH]c4ccccc34)C(=O)N[C@@H](CO)C(=O)N[C@@H]([C@@H](C)O)C(=O)N3CCC[C@H]3C(=O)N3C[C@H](O)C[C@H]3C(=O)N[C@@H](Cc3c[nH]c4ccccc34)C(=O)N[C@H](C(N)=O)CSCCC5=O)CCOCCOCCOCCn3cc(CCC(=O)NCCCC[C@H]4NC(=O)[C@H](CCC(=O)O)NC(=O)[C@@H]5CCCN5C(=O)[C@H](CC(C)(C)C)NC(=O)[C@@H](NC(C)=O)CSCCC(=O)N5CN6CN(C5)C(=O)CCSC[C@H](NC(=O)[C@H](Cc5ccc(O)cc5)NC(=O)[C@@H]5CCCN5C4=O)C(=O)N[C@@H](Cc4ccccc4)C(=O)N[C@@H](C)C(=O)N[C@@H](CC(=O)O)C(=O)N4CCC[C@H]4C(=O)N[C@@H](Cc4ccc(O)cc4)C(=O)N[C@@H](CCCC)C(=O)N[C@H](C(=O)N[C@@H](C)C(N)=O)CSCCC6=O)nn3)nn1)C(=O)N1CCC[C@H]1C(=O)N[C@@H](Cc1ccc(O)cc1)C(=O)N2 |  | cynomolgus monkey |  |  | Vdss | 0.88 ± 0.23 L/kg
NC1CCN(C(=O)Oc2ccc(C3CCCC4(C3)OOC3(O4)C4CC5CC(C4)CC3C5)cc2)CC1 (racemic) |  | male Sprague-Dawley rat, plasma | intravenous, 10 mg/kg |  | AUC(0-t) | 2500 ng·h/mL
CC[C@H](C)[C@H](NC(=O)[C@H](CCCCN)NC(=O)CNC(=O)[C@H](CC(C)C)NC(=O)[C@H](Cc1ccccc1)NC(=O)[C@H](CCCCN)NC(=O)[C@H](CO)NC(=O)[C@H](Cc1ccccc1)NC(=O)[C@H](Cc1c[nH]c2ccccc12)NC(=O)[C@H](CCC(N)=O)NC(=O)[C@@H](NC(=O)[C@H](Cc1ccccc1)NC(=O)CCCCCNC(=O)CN1CCN(CC(=O)O)CCN(CC(=O)O)CCN(CC(=O)O)CC1)C(C)C)C(=O)N[C@@H](CCC(=O)O)C(=O)N1CCC[C@H]1C(=O)N[C@@H](CC(=O)O)C(=O)N[C@H](C(=O)N[C@@H](CO)C(=O)N[C@@H](CCC(N)=O)C(=O)N[C@H](C(=O)N[C@@H](CCC(N)=O)C(=O)N[C@@H](CC(=O)O)C(=O)N1CCC[C@H]1C(=O)N[C@@H](CC(N)=O)C(=O)N[C@@H](CC(=O)O)C(=O)N[C@@H](CCC(N)=O)C(=O)N[C@@H](Cc1ccc(O)cc1)C(=O)N[C@@H](CCC(=O)O)C(=O)N1CCC[C@H]1C(=O)N[C@@H](Cc1ccccc1)C(=O)O)C(C)C)C(C)C [copper-64 labelled] | dynamic PET | mouse both sexes, CT26 tumour, checkpoint inhibitor-treated, tumour | intravenous, 100 µCi/mouse, 510 s |  | SUVmean | 4.11 SUV
CC(C)C[C@@H](NC(=O)[C@@H](CCCNC(=N)N)NC(=O)[C@@H](Cc1c[nH]cn1)NC(=O)[C@@H](Cc1c[nH]c2ccccc12)NC(=O)[C@@H](Cc1c[nH]cn1)NC(=O)[C@@H](Cc1ccccc1)NC(=O)[C@H](NC(=O)[C@@H](Cc1ccc(O)cc1)NC(=O)CNC(=O)CNC(=O)CCOCCOCCOCCNC(=O)CN1CCN(CC(=O)O)CCN(CC(=O)O)CC1)[C@H](C)O)C(=O)N[C@H](CC(N)=O)C(=O)N1CCC[C@@H]1C(=O)O [gallium-68 labelled] |  | C57BL/6 mice, male | intravenous, 1.85 MBq, 120 min | baseline: tumour over liver | tissue ratio | 6.13 ± 1.62
CSCC[C@H](N)C(=O)N[C@@H](C)C(=O)N[C@@H](CCCNC(=N)N)C(=O)N[C@@H](CCCNC(=N)N)C(=O)N[C@@H](CC(=O)O)C(=O)N[C@@H](CCCCN)C(=O)N[C@H](C(=O)N[C@@H](CC(=O)O)C(=O)N[C@@H](Cc1ccccc1)C(=O)N[C@@H](C)C(=O)N[C@@H](CCCNC(=N)N)C(=O)N[C@@H](CCCNC(=N)N)C(=O)N[C@@H](CCCNC(=N)N)C(=O)N[C@@H](CCCNC(=N)N)C(=O)NCCCCCC(=O)NCCCCC(NC(=O)CCCCCNC(=O)[C@H](CCCNC(=N)N)NC(=O)[C@H](CCCNC(=N)N)NC(=O)[C@H](CCCNC(=N)N)NC(=O)[C@H](CCCNC(=N)N)NC(=O)[C@H](C)NC(=O)[C@H](Cc1ccccc1)NC(=O)[C@H](CC(=O)O)NC(=O)[C@@H](NC(=O)[C@H](CCCCN)NC(=O)[C@H](CC(=O)O)NC(=O)[C@H](CCCNC(=N)N)NC(=O)[C@H](CCCNC(=N)N)NC(=O)[C@H](C)NC(=O)[C@@H](N)CCSC)[C@@H](C)O)C(=O)NCCCCC(NC(=O)C(CCCCNC(=O)CCCCCNC(=O)[C@H](CCCNC(=N)N)NC(=O)[C@H](CCCNC(=N)N)NC(=O)[C@H](CCCNC(=N)N)NC(=O)[C@H](CCCNC(=N)N)NC(=O)[C@H](C)NC(=O)[C@H](Cc1ccccc1)NC(=O)[C@H](CC(=O)O)NC(=O)[C@@H](NC(=O)[C@H](CCCCN)NC(=O)[C@H](CC(=O)O)NC(=O)[C@H](CCCNC(=N)N)NC(=O)[C@H](CCCNC(=N)N)NC(=O)[C@H](C)NC(=O)[C@@H](N)CCSC)[C@@H](C)O)NC(=O)CCCCCNC(=O)[C@H](CCCNC(=N)N)NC(=O)[C@H](CCCNC(=N)N)NC(=O)[C@H](CCCNC(=N)N)NC(=O)[C@H](CCCNC(=N)N)NC(=O)[C@H](C)NC(=O)[C@H](Cc1ccccc1)NC(=O)[C@H](CC(=O)O)NC(=O)[C@@H](NC(=O)[C@H](CCCCN)NC(=O)[C@H](CC(=O)O)NC(=O)[C@H](CCCNC(=N)N)NC(=O)[C@H](CCCNC(=N)N)NC(=O)[C@H](C)NC(=O)[C@@H](N)CCSC)[C@@H](C)O)C(N)=O)[C@@H](C)O (stereo partly shown) |  | C57BL/6 mouse female, colon | dose not given, 3 h | baseline: total | tissue distribution | 1.4% and 2.61% and 1.37%
CC(C)Oc1c(NC(=O)c2ccc(NC(=O)[C@H](CC(N)=O)NC(=O)c3ccc(/N=N/c4ccccc4)cc3)cc2)ccc(C(=O)N/N=C/c2ccc(C(=O)O)cc2)c1O | absorbance | DMSO | 40 °C, PSS to ground state relaxation |  | thermal half-life | 8.1 h
CC[C@H](C)[C@H](NC(=O)[C@H](Cc1ccccc1)NC(=O)[C@H](CCCCN)NC(=O)[C@H](CCCCN)NC(=O)CNC(=O)[C@H](C)NC(=O)[C@H](CC(N)=O)NC(=O)[C@H](CCCCN)NC(=O)[C@H](Cc1ccccc1)NC(=O)[C@H](CC(N)=O)NC(=O)[C@H](CCC(=O)O)NC(=O)[C@H](Cc1c[nH]c2ccccc12)NC(=O)[C@H](CC(C)C)NC(=O)[C@@H](N)CO)C(=O)N[C@@H](CC(C)C)C(=O)N[C@@H](CC(N)=O)C(=O)N[C@H](C(=O)N[C@@H](CC(C)C)C(=O)N[C@@H](CC(=O)O)C(=O)N[C@@H](CCCCN)C(N)=O)[C@@H](C)CC |  | horse erythrocytes | 2 h, 37 °C | baseline: Triton X-100 | HC50 | > 128 µM
O=C1NC2(CC2)COc2ncc(F)cc2[C@H]2COCCN2c2ccn3ncc1c3n2 |  | Sprague-Dawley rat, male | oral, 10 mg/kg/day, end of treatment, 4-week repeated-dose toxicity |  | body weight | 451 ± 30.5 g

For quick reference, copied from above:
Structure (SMILES) | test | test system | setting | how to read | endpoint | value
CCn1ccc(-c2cc(-c3cnn(C)c3)cc([C@@H](C)NC(=O)c3cc(OCCN(C)C)ccc3C)c2)n1 |  | C57BL/6J mice, male, plasma | iv, 10 mg/kg |  | AUC(0-inf) | 6250 ng·h/mL
